Results collected from several papers.
Parts stem from different laboratories: compare values within a part only. “And” joins repeats or separate records; there may be more than shown.

Study 1
SMILES: CC(C)n1cnc(-c2ccc(F)cc2)c1-c1ncc(C(=O)Nc2ccc(N3CCN(C)CC3)cc2)[nH]1
Technique: phase 2a clinical trial
Host: patients with idiopathic pulmonary fibrosis
Endpoint: patients with treatment-emergent adverse events
item: investigations (SOC); dose not given, Grade 4, all drug arms total: 0%
item: carbon dioxide decreased; dose not given, Grade 4, all drug arms total: 0%
item: electrocardiogram QT prolonged; 60 mg once daily, Grade 4: 0%
item: investigations (SOC); 30 mg once daily, Grade 2: 0%
item: benign prostatic hyperplasia; 30 mg once daily, Grade 5, maximum intensity: 0%
item: idiopathic pulmonary fibrosis; dose not given, Grade 4, all drug arms: 0%
item: hepatic function abnormal; 60 mg once daily, Grade 5: 0%
item: metabolism and nutrition disorders (SOC); dose not given, Grade 3, all drug arms total: 0%
item: electrocardiogram T wave abnormal; 60 mg once daily, Grade 1: 0%

Study 2
Cell line: HaCaT
Tested at: 100 µM
Time: 18 h
Endpoint: viability
C[C@H](Cn1cnc2c(N)ncnc21)OCP(=O)(O)O: 93.7%
CCN1CC(CCN2CCOCC2)C(c2ccccc2)(c2ccccc2)C1=O (stereo not shown): 108%
O=C1CN2Cc3c(ccc(Cl)c3Cl)N=C2N1: 108%
CN(C/C=C/C#CC(C)(C)C)Cc1cccc2ccccc12: 39.9%
CCC(C)(C)c1ccc(CC(C)CN2C[C@@H](C)O[C@@H](C)C2)cc1 (stereo partly shown): 20%
Cc1cccc(N(C)C(=S)Oc2ccc3ccccc3c2)c1: 100%
CC1CCc2c(N3CCC(O)CC3)c(F)cc3c(=O)c(C(=O)O)cn1c23 (stereo not shown): 115%
CCOc1ccc(Cc2cc([C@@H]3O[C@H](CO)[C@@H](O)[C@H](O)[C@H]3O)ccc2Cl)cc1: 87.6%
CO/N=C1\CN(c2nc3c(cc2F)c(=O)c(C(=O)O)cn3C2CC2)CC1CN (stereo not shown): 94%
Cc1c(CNCS(=O)(=O)O)c(=O)n(-c2ccccc2)n1C: 122%
CN1C(C(=O)Nc2ccccn2)=C(O)c2sccc2S1(=O)=O: 74%
OCCOc1ccc(/C(=C(/CCCl)c2ccccc2)c2ccccc2)cc1: 19.3%

Study 3
Target: Receptor tyrosine-protein kinase erbB-2 (ERBB2, Homo sapiens, UniProt P04626)
Read-out: enzyme activity
Mode: inhibitor
Tested at: 0.5 µM
Relative to: control
Endpoint: remaining activity
O=C1c2ccccc2-c2n[nH]c3cccc1c23: 98%
COc1cc2c(cc1OC)-c1[nH]nc(Nc3cccc(F)c3)c1C2: 101%
Ic1cccc(CSc2nnc(-c3ccncc3)o2)c1: 99.6%
N#C/C(=C\c1ccc(O)c(O)c1)C(=O)NCc1ccccc1: 97.6%
O=c1cc(-c2cccc3c2Sc2ccccc2S3)oc(N2CCOCC2)c1: 97.3%
CCN(CC)CCNC(=O)c1c(C)[nH]c(/C=C2\C(=O)Nc3ccc(F)cc32)c1C: 105%
CCN(CC)CCNC(=O)c1c(C)[nH]c(/C=C2\C(=O)Nc3ccc(Cl)cc32)c1C: 102%
CN(C)C[C@H]1CCn2c(c(C3=C(c4cn(C)c5ccccc45)C(=O)NC3=O)c3ccccc32)C1: 95.9%
C[C@@H]1CCN(C(=O)CC#N)C[C@@H]1N(C)c1ncnc2[nH]ccc12: 109%
c1ccc(-c2cnc(Nc3ccc(OCCN4CCCC4)cc3)s2)cc1: 101%
Cn1nc2c3c(cccc31)C(=O)c1ccccc1-2: 96.9%
CN([C@@H](Cc1ccc(OS(=O)(=O)c2cccc3cnccc23)cc1)C(=O)N1CCN(c2ccccc2)CC1)S(=O)(=O)c1cccc2cnccc12: 96%

Other studies, line by line
Cn1cncc1[C@@](O)(COc1ccc(C#N)cc1-c1ccc(OC(F)(F)F)cc1)c1ccc(C#N)cc1 — cells with high Hoechst intensity (HEK293T; high-content imaging; 10 µM, 12 h): 14.3% and 6.3%

A few entries again (study 1):
item: investigations (SOC); 30 mg once daily, Grade 2: 0%
item: benign prostatic hyperplasia; 30 mg once daily, Grade 5, maximum intensity: 0%
item: idiopathic pulmonary fibrosis; dose not given, Grade 4, all drug arms: 0%
item: hepatic function abnormal; 60 mg once daily, Grade 5: 0%
